Measured values from different studies.
Each line is one published result; not all experiments were run side by side. Numbers after ± are the reported error. Values after ≈ are worked out from the molar mass of the structure shown.

NC(=O)c1cn(-c2ccc(F)cc2)c2ccc(NCc3cccnc3)cc2c1=O — Kp,uu brain/plasma (rat; iv, 0.2 mg/kg, 15 min, cassette dosing): 0.02
NC1CCN(Cc2ccn3ncnc(Nc4cccc(-c5cnco5)c4)c23)CC1 — free plasma concentration (from plasma protein binding; mouse, plasma; intraperitoneal, 30 mg/kg, 90 min): 118 nM
CC(C)(C)NC(=O)C(c1c(C(=O)O)[nH]c2cc(Cl)ccc12)N(C=O)Cc1cc(F)c(F)c(F)c1 (racemic) — aqueous solubility (water): 0.85 mg/mL
COC(=O)CC[C@H](NC(=O)c1ccc(N(C)Cc2cnc3nc(N)nc(N)c3n2)cc1)C(=O)OC — logP: 1.47
NC(=O)c1cn(-c2ccc(F)cc2)c2ccc(Nc3cccnc3)cc2c1=O — unbound fraction (rat, plasma): 0.084
CC(C)n1nnc(-c2cc(O)cc(Nc3ncnn4ccc(CN5CCC(N)CC5)c34)c2)n1 — brain to plasma ratio (mouse; subcutaneous, 60 mg/kg, 90 min): 0.01
CCOc1ccccc1Nc1nnc(SCC(=O)Nc2cc(F)ccc2F)s1 — half-life (mouse plasma): > 2 h
Cn1cnc(S(=O)(=O)N2C[C@@H]3[C@H](C2)[C@@]3(CNC(=O)c2ccc(F)cc2F)CC2CC2)c1 (relative stereo) — brain-to-plasma ratio (Kp) (rat, brain and plasma; oral): 0.5
Cc1ncc(CCc2ccc3c(c2)c(=O)c(C(N)=O)cn3-c2ccc(F)cc2)cn1 — Kp,uu brain/plasma (rat; iv, 0.2 mg/kg, 15 min, cassette dosing): 0.05
O=C(NO)[C@H]1COC(c2ccc([N+](=O)[O-])cc2)=N1 — logD (octanol/buffer; pH 11): -1.47
CCCCNC(=O)NC1CC=C(c2cc3c(Nc4cc5ncsc5cc4F)ncnc3s2)CC1 (stereo not shown) — intrinsic clearance (human liver microsomes; 1 µM): < 12 mL/min/g protein
CN(C)c1ccc(C2=N[C@@H](C(=O)NO)CO2)cc1 — logD (octanol/buffer; pH 11): > 4.38
Cc1n[nH]c(C)c1CCOC(=O)c1cccc2c1oc(=O)n2C — Tmax (BALB/c mouse, plasma; oral, 10 mg/kg): 1.29 h
Cc1ncc(OCc2ccc3c(c2)c(=O)c(C(N)=O)cn3-c2ccc(F)cc2)cn1 — unbound fraction (rat, plasma): 0.109
O=C(NO)[C@H]1COC(c2ccc(F)cc2)=N1 — logD (octanol/buffer; pH 11): -1.11
Cc1c(-c2ccccc2)nn2c(=O)cc(-c3cccc(-c4nnn[nH]4)c3)[nH]c12 — CLint (human liver microsomes; 1 µM): 7.71 µL/min/mg
NC(=O)c1cn(-c2ccc(F)cc2)c2ccc(COc3ccc(Cl)nc3)cc2c1=O — unbound fraction (rat, plasma): 0.033
Oc1ccc(-n2cc(-c3ccc4ccccc4n3)nn2)cc1 — aqueous solubility (shake-flask; Britton-Robinson buffer; 48 h, pH 6.5, 30 °C): 7.6 µM
CCCn1c(NCc2cccc(Cl)c2O)nc2ccccc21 — half-life (mouse, liver microsomes; 1 µM, 37 °C, added: NADPH): 0.0617 h
O=C(NO)C1CSC(c2ccc(F)cc2)=N1 (stereo not shown) — solubility (aqueous buffer; pH 7.4): 37.1 mg/mL (≈ 154 mM)
O=C(OC(C(F)(F)F)C(F)(F)F)N1Cc2ccc(Br)cc2C1 — plasma concentration (male CD-1 mouse, plasma; intravenous, 2 mg/kg, 15 min, cassette dosing): 114 ± 15 ng/mL
[O-][S+](CC1CS1)c1ccc(Oc2ccccc2)cc1 (single isomer, unassigned) — chemical stability (3 d, room temperature, added: DBU): stable
CCN(Cc1cccnc1)c1ccc2c(c1)c(=O)c(C(N)=O)cn2-c1ccc(F)cc1 — unbound fraction (rat, plasma): 0.067
CCCSc1nc(N[C@@H]2C[C@H]2c2ccc(F)c(F)c2)c2nnn([C@@H]3C[C@H](O)[C@@H](O)[C@H]3O)c2n1 — AUC (rat, female, plasma; oral, 20 mg/kg/day ticagrelor, week 26): 7.2 µM·h
COc1ccc(CC(=O)OCc2ccc(-n3cccn3)cc2)cc1F — AUC(0-t) (BALB/c mouse, plasma; oral, 10 mg/kg): 9400 ng·h/mL
Cc1cc(NC(=O)c2cccc(NC(=O)C3=CC(C)(C)CCC3=O)c2)ccc1Nc1nccc(-c2cccnc2)n1 — compound remaining (rat plasma; 1 µM, 60 min): 98.4%
O=C(COc1ccc(C=CC2=[N+]3C(=Cc4ccc(-c5ccc[nH]5)n4[B-]3(F)F)C=C2)cc1)NCCCCCC(=O)N1CCN(C(=O)c2cc(Cc3n[nH]c(=O)c4ccccc34)ccc2F)CC1 — C0 (mouse, plasma; intravenous, 75 nmol): 22800 nM
O=C(O)c1cccc(-c2nc(-c3ccccc3F)c3sccn23)c1 — CLint (mouse liver microsomes; 1 µM): 61.1 µL/min/mg
O=C1Nc2cccc(C#CC3(O)CCNCC3)c2/C1=C/c1cc2ccccc2[nH]1 — Cmax (C57BL/6 mouse, plasma; intraperitoneal, 10 mg/kg): ~2000 nM
Nc1ncc(-c2ccc3ncnc(N4CCc5cc(F)c(Cl)cc54)c3c2)cn1 — Cmax (CD1 mouse, plasma; oral, 100 mg/kg): 4730 ng/mL
CN(C)c1ccc(C2=NC(C(=O)NO)CS2)cc1 (stereo not shown) — logD (octanol/buffer; pH 11): -0.12
CCN(CC)c1ccc2c(-c3ccccc3C(=O)N(C)CCCC(=O)N[C@@H](CC(C)C)C(=O)N[C@@H](CCCNC(=N)N)C(=O)N[C@@H](CCCNC(=N)N)C(=O)N[C@@H](C)C(=O)N[C@@H](CO)C(=O)N[C@@H](CC(C)C)C(=O)NCC(=O)O)c3ccc(=[N+](CC)CC)cc-3oc2c1 — molar extinction coefficient (UV/Vis; phosphate buffer 25 mM; 100 µM, pH 7.4, at λmax 560 nm): > 35000 M⁻¹ cm⁻¹
CSc1cc(NC(=O)c2ccccn2)ccc1Cl — elimination rate constant (rat liver microsomes): 0.106 min⁻¹
CN(C)S(=O)(=O)c1ccc(NCCCCCCN2CCC(Nc3nc4ccccc4n3Cc3ccc(F)cc3)CC2)c2nonc12 — emission wavelength: 579 nm

A few entries again:
O=C(OC(C(F)(F)F)C(F)(F)F)N1Cc2ccc(Br)cc2C1 — plasma concentration (male CD-1 mouse, plasma; intravenous, 2 mg/kg, 15 min, cassette dosing): 114 ± 15 ng/mL
[O-][S+](CC1CS1)c1ccc(Oc2ccccc2)cc1 (single isomer, unassigned) — chemical stability (3 d, room temperature, added: DBU): stable
CCN(Cc1cccnc1)c1ccc2c(c1)c(=O)c(C(N)=O)cn2-c1ccc(F)cc1 — unbound fraction (rat, plasma): 0.067
CCCSc1nc(N[C@@H]2C[C@H]2c2ccc(F)c(F)c2)c2nnn([C@@H]3C[C@H](O)[C@@H](O)[C@H]3O)c2n1 — AUC (rat, female, plasma; oral, 20 mg/kg/day ticagrelor, week 26): 7.2 µM·h
